Measured values gathered from unrelated publications.
Protocols differ between the studies behind these lines. Values joined by “and” are separate records of one study, mostly repeats; a detail may differ. Numbers after ± are the reported error. In brackets after ≈: the same amount, converted by molar mass.

Compound = CC(C)[C@H]1NC(=O)[C@H](Cc2ccccc2)NC(=O)[C@@H](C(C)C)NC(=O)[C@@H](C)NC(=O)[C@H](CO)NC(=O)[C@@H](Cc2c(-c3ccc(-c4ccccc4)cc3)[nH]c3ccccc23)NC(=O)[C@@H](CO)NC1=O; organism = Vibrio vulnificus; assay = broth dilution; endpoint = MIC90; result = > 50 µM
Compound = CCOC(=O)C1(Cc2cc(F)cc(F)c2)Oc2cc(F)ccc2N(Cc2cc(F)cc(F)c2)C1=O (stereo not drawn); organism = Amaranthus retroflexus; assay = fresh weight, greenhouse postemergence; setting = postemergence, 150 g ai/ha, 21 days; endpoint = inhibition; result = 45.6 ± 3.37%
Compound = NCCC[C@@H]1NC(=O)[C@@H](CCCN)NC(=O)[C@H](Cc2ccccc2)NC(=O)[C@@H](Cc2cccc(F)c2)NC(=O)[C@H](Cc2ccccc2)NC(=O)[C@@H](CCCN)NC1=O; organism = Balamuthia mandrillaris; assay = parasite growth, ATP luminescence; endpoint = IC90; result = > 20 µM
Compound = NCCO.O=C(O)C(Cl)Cl; organism = Amaranthus retroflexus; assay = herbicidal activity; setting = 15 mg/mL, 21 days, pre-emergence greenhouse; endpoint = inhibition; result = 0%
Compound = CCCCCCCCC=CCCCCCCCCNC(=O)C(N)Cc1ccc(OP(=O)(O)COC(CO)Cn2ccc(N)nc2=O)cc1 (stereo not drawn); organism = varicella-zoster virus; assay = cytopathic effect; system = HFF, Ellen; setting = 14 d; endpoint = EC50; result = 0.004 µM
Compound = CCOC(=O)C1(C)Oc2cc(F)ccc2N(C)C1=O (stereo not drawn); organism = Amaranthus retroflexus; assay = fresh weight, greenhouse postemergence; setting = postemergence, 150 g ai/ha, 21 days; endpoint = inhibition; result = 68.8 ± 0.9%
Compound = Cc1cc(C(=O)Nc2nc3cccc(C)c3n2[C@H]2CCCCN(C(=O)/C=C/CN(C)C)C2)ccn1; organism = Trypanosoma brucei; assay = propidium iodide flow cytometry; system = bloodstream form; setting = concentration not given, 48 h; endpoint = cells in G2 phase; result = 38.1%
Compound = C[C@H](N)[C@@H](CCCCCCCCCCCCCCC(=O)CCCCCCC[C@@H](O)[C@@H](C)N)O[C@@H]1O[C@H](CO)[C@H](O)[C@H](O)[C@H]1O; organism = Acinetobacter baumannii; assay = resazurin; system = ATCC 19606; setting = 50 µM; endpoint = growth inhibition; result = 98 ± 0.07%
Compound = NCCc1cccc(-c2nc(=O)c3ccccc3s2)n1; organism = Acinetobacter baumannii; assay = growth inhibition; system = AR Bank 0288, XDR; setting = 5% CO2; endpoint = EC50; result = > 100 µM
Compound = CC(C)[C@H](NC(=O)[C@H](CO)NC(=O)[C@@H](N)CC(=O)O)C(=O)N[C@H]1CSC(=O)[C@H](Cc2ccccc2)NC(=O)[C@H](Cc2ccc(O)cc2)NC(=O)[C@H](CO)NC(=O)[C@H](C)NC1=O; organism = Staphylococcus epidermidis; assay = safranin staining; system = RP62A; setting = 10 µM, 37 °C; scale = baseline: DMSO control; endpoint = biofilm dispersal; result = 46.7%
Compound = [O-][N+]1=C(c2ccc(Cl)cc2)C2=NCCCCN2c2ccccc21; organism = Bacteroides fragilis; endpoint = MIC90; result = 2 µg/mL
Compound = C#CCCCC(=O)N[C@H]1CCOC1=O; organism = Escherichia coli; assay = LuxR reporter, antagonist; system = DH5α sensor strain; setting = 10 µM, together with: OHHL 200 nM; endpoint = inhibition; result = 74%
Compound = COc1ccc(C2=[N+]([O-])c3ccccc3N3CC(C)(C)CN=C23)cc1; organism = Bacteroides fragilis; assay = microbial growth; endpoint = MIC50; result = 0.25 µg/mL (≈ 0.745 µM)
Compound = CCc1nn(C)c2nc(-c3ccc(C(=O)O)cc3)nc(NCc3ccccc3)c12; organism = Cryptosporidium parvum; system = HCT-8; setting = 6 x EC90, 72 h; scale = baseline: DMSO control; endpoint = parasite number; result = 44% and 40.4% and 35% and 28.1%
Compound = CC(O)CN(CC(C)O)CC(C)O.O=C(O)C(Cl)Cl (stereo not drawn); organism = Amaranthus retroflexus; assay = herbicidal activity; setting = 15 mg/mL, 21 days, pre-emergence greenhouse; endpoint = inhibition; result = 0%
Compound = CC1=C[C@@H](C)[C@H]2[C@@H]3C(=O)C(Cl)(Cl)C(=O)[C@H](C)C(=O)O[C@@H](C)/C=C/C=C\[C@@H](C)[C@@H]3C=C[C@@H]2C1; organism = Staphylococcus aureus; system = Newman compound-resistant mutant Mt7; setting = concentration not given; scale = baseline: parent strain; endpoint = MIC fold change; result = 8
Compound = CCOC(=O)C1(Cc2ccc(-c3ccccc3)cc2)Oc2cc(F)ccc2N(Cc2ccc(-c3ccccc3)cc2)C1=O (stereo not drawn); organism = Amaranthus retroflexus; assay = fresh weight, greenhouse postemergence; setting = postemergence, 150 g ai/ha, 21 days; endpoint = inhibition; result = 55.4 ± 3.63%
Compound = CC[C@H](C)CCCCC(=O)N[C@@H](CCN)C(=O)N[C@H](C(=O)N[C@@H](CCN)C(=O)N[C@H]1CCNC(=O)[C@H]([C@@H](C)O)NC(=O)[C@H](CCN)NC(=O)[C@H](CCN)NC(=O)[C@H](CC(C)C)NC(=O)[C@@H](CC(C)C)NC(=O)[C@H](CCN)NC1=O)[C@@H](C)O; organism = Escherichia coli; assay = daily serial passaging; system = ATCC 8739; setting = highest sub-MIC, 8 days; scale = baseline: initial MIC; endpoint = MIC fold change; result = 1.16
Compound = COc1ccc(Cn2c3cc(=O)n(Cc4cccc(Cl)n4)c(C)c3c(=O)n2-c2ccccn2)cc1; organism = human respiratory syncytial virus; system = recombinant reporter virus; setting = concentration not given, scale 0 to 100, together with: adenosine 0.13 µM; endpoint = normalized viral replication; result = 0
Compound = CC1COC2=C1C(=O)C(=O)c1c2ccc2c1C(OC(=O)CNC(=O)C(N)CCC(=O)O)CCC2(C)C (mixture of isomers); organism = Staphylococcus epidermidis; setting = 10 µmol/mL, 48 h, 10 µL on 6 mm disc; endpoint = inhibition zone diameter; result = 24.8 ± 1 mm
Compound = [O-][N+]1=C(c2ccccc2)C2=NCCCN2c2ncccc21; organism = Bacteroides fragilis; assay = microbial growth; endpoint = MIC50; result = ≤ 0.06 µg/mL
Compound = CCOC(=O)C1(Cc2ccc(C)cc2)Oc2cc(F)ccc2N(Cc2ccc(C)cc2)C1=O (stereo not drawn); organism = Amaranthus retroflexus; assay = fresh weight, greenhouse postemergence; setting = postemergence, 150 g ai/ha, 21 days; endpoint = inhibition; result = 54.7 ± 3.11%
Compound = COc1ccc(-c2[nH]c3ccccc3c2C[C@H]2NC(=O)[C@@H](CO)NC(=O)[C@@H](C(C)C)NC(=O)[C@H](Cc3ccccc3)NC(=O)[C@@H](C(C)C)NC(=O)[C@@H](C)NC(=O)[C@H](CO)NC2=O)c(OC)c1; organism = Vibrio vulnificus; assay = broth dilution; endpoint = MIC90; result = 50 µM
Compound = CCN(CC)CC#CCNc1ccnc2cc(Cl)ccc12; organism = Plasmodium falciparum; assay = parasite growth, LDH; system = RF12; scale = baseline: IC50 RF12 over IC50 3D7; endpoint = resistance index; result = 1.5
Compound = CN(C(=O)c1ccn2ncc(-c3ccc(C(N)=O)cc3)c2c1)c1ccc(C#N)cn1; organism = Cryptosporidium parvum; system = UGA1 Nluc, IFN-gamma knockout C57BL/6 mice, faeces; setting = oral, 10 mg/kg daily, 216 h post infection, treatment days 3-9; scale = higher means more parasites; endpoint = faecal Nluc luminescence; result = 133 a.u. and 19 a.u. and 10 a.u. and 55 a.u. and 13 a.u.
Compound = CC(C)C[C@H](NC(=O)[C@@H](N)CO)C(=O)N[C@@H](Cc1c[nH]c2ccccc12)C(=O)N[C@@H](CCC(=O)O)C(=O)N[C@@H](CC(N)=O)C(=O)N[C@@H](Cc1ccccc1)C(=O)N[C@@H](CCCCN)C(=O)N[C@@H](CC(N)=O)C(=O)N[C@@H](C)C(=O)NCC(=O)N[C@@H](CCCCN)C(N)=O; organism = all tested microorganisms; endpoint = geometric mean MIC; result = 256 µM
Compound = [O-][N+]1=C(c2ccsc2)C2=NCCCN2c2ccccc21; organism = Bacteroides fragilis; endpoint = MIC90; result = 0.5 µg/mL
Compound = FC(F)(F)c1cccc(CNc2nc(NC3CCN(Cc4ccccc4)CC3)c3nc[nH]c3n2)c1; organism = Cryptococcus neoformans; assay = RNA-seq, item: SAC1 (CNAG_06080); setting = 48 µg/mL, 3 h; scale = baseline: untreated; endpoint = mRNA fold change; result = 1.36
Compound = Cc1cc(Cl)cc(S(C)=NC#N)c1NC(=O)c1cc(Br)nn1-c1ncccc1Cl (stereo not drawn); organism = Spodoptera litura; assay = leaf-dip; system = third instar larvae; setting = 6.25 ppm, 96 h; endpoint = mortality; result = 100%
Compound = CN(C)S(=O)(=O)c1ccc(S(=O)(=O)N2CCC(n3c(=O)[nH]c4ccccc43)CC2)cc1; organism = Escherichia coli; system = Keio wild type; setting = concentration not given, 48 h; endpoint = rifampicin concentration; result = 15.6 µg/mL
